# Experimental data from different studies.
# Parts stem from different laboratories: compare values within a part only. “And” joins repeats or separate records; there may be more than shown.

# Study 1 — cell line: sample I colorectal tumour organoid; tested at: 1 µM; relative to: DMSO
SMILES,viability
CCC(=NO)C(C)=Cc1ccc(F)c(C)c1,117%
O=C(Nc1cccnn1)N1CC(CC=Cc2cncc(Oc3ccc(C(F)(F)F)cn3)n2)C1,114%
CC(C)C(=O)Nc1n[nH]c2cc(-c3cccc(NS(=O)(=O)C4CC4)c3)ccc12,106%
O=C(O)c1ccc(-c2coc3ncc(-c4ccccc4)cc23)cc1Cl,103%
Cn1cc(-c2ccc3occ(-c4ccccc4-c4ccccc4)c3n2)cn1,123%
COc1cc(Nc2ccnc3ccc(Br)cc23)cc(OC)c1OC,93.9%
CCOc1cn(-c2ccc(F)cc2C)nc1C(=O)Nc1ccc(Oc2ccnc3cc(OC)c(OC)cc23)c(F)c1,96.5% and 111%
CCNC(=O)c1cc2c(N3CCOC[C@H]3C)ccnc2n1C,105% and 93.7%
COc1ccc2c(O[C@@H]3C[C@H]4C(=O)N[C@]5(C(=O)O)CC5/C=C\CCCCC[C@H](NC(=O)OC5CCCC5)C(=O)N4C3)cc(-c3csc(NC(=O)C(C)C)n3)nc2c1C (stereo partly drawn),82%
COc1cccc(NC(=O)c2nc3scc(CN(C)Cc4ccccc4)c3c(=O)[nH]2)c1,146%
CN1CCN(Cc2cc(NC(=O)c3ccc4c(c3)CN(c3ccccc3)CC4)cc(C(F)(F)F)c2)CC1,80.5% and 96.6%
CCN(CC)S(=O)(=O)Nc1cccc(-c2ccc3c(NC(=O)C4CC4)n[nH]c3c2)c1,91.7%
O=C(NCc1ccccc1)c1ccc(S(=O)(=O)NCc2ccccc2)cc1,92.2%
CC(=O)NCC(=O)N1[C@@H]2CC[C@H]1c1ccc(Nc3ncc(C(F)(F)F)c(NC4CCC4)n3)cc12,34.3% and 32.8%
CCC(=N\O)/C(C)=C/c1ccc(F)cc1,89%

# Study 2 — cell line: A-375; tested at: 100 µM; time: 36 h
SMILES,viability
O=C(N/N=C/c1ccc([N+](=O)[O-])o1)c1ccc(O)cc1,4.78%
OC[C@@H](O)[C@@H](O[C@@H]1O[C@H](CO)[C@H](O)[C@H](O)[C@H]1O)[C@H](O)[C@@H](O)CO,124%
NS(=O)(=O)c1cc(C2(O)NC(=O)c3ccccc32)ccc1Cl (stereo not drawn),96.5%
Cn1c(NCCN(CCO)CCCc2ccc([N+](=O)[O-])cc2)cc(=O)n(C)c1=O,91.6%
CCC(=O)O[C@]1(C(=O)SCF)[C@H](C)C[C@H]2[C@@H]3C[C@H](F)C4=CC(=O)C=C[C@]4(C)[C@@]3(F)[C@@H](O)C[C@@]21C,35.1%
CC(C)(Oc1ccc(CCNC(=O)c2ccc(Cl)cc2)cc1)C(=O)O,102%
CC(=O)Nc1c(I)c(NC(C)=O)c(I)c(C(=O)O)c1I,106%
C[C@]12CCC(=O)C=C1CC[C@@H]1[C@@H]2[C@@H](O)C[C@@]2(C)[C@H]1CC[C@]2(O)C(=O)CO,116%
C[C@H](Cn1cnc2c(N)ncnc21)OCP(=O)(O)O,102%
C=C(c1ccc(C(=O)O)cc1)c1cc2c(cc1C)C(C)(C)CCC2(C)C,2.38%
Cc1nnc(SCC2=C(C(=O)O)N3C(=O)[C@@H](NC(=O)Cn4cnnn4)[C@H]3SC2)s1,110%
CCCC(=O)Nc1ccc(OCC(O)CNC(C)C)c(C(C)=O)c1 (stereo not drawn),93%
O=C(O)CCc1nc(-c2ccccc2)c(-c2ccccc2)o1,94.1%
Nc1ccn([C@H]2CC[C@@H](CO)O2)c(=O)n1,116%
CN(C)CCC=C1c2ccccc2CCc2ccccc21,-0.363%

# Study 3 — effect on: enzyme activity; mode: inhibitor; tested at: 0.5 µM; relative to: control
# Target: Tyrosine-protein kinase SYK (SYK, Homo sapiens, UniProt P43405)
Compound,remaining activity [%]
Ic1cccc(CSc2nnc(-c3ccncc3)o2)c1,92.2
CN(C)C[C@H]1CCn2c(c(C3=C(c4cn(C)c5ccccc45)C(=O)NC3=O)c3ccccc32)C1,99.6
CN([C@@H](Cc1ccc(OS(=O)(=O)c2cccc3cnccc23)cc1)C(=O)N1CCN(c2ccccc2)CC1)S(=O)(=O)c1cccc2cnccc12,98.7
Cc1cn(-c2cc(NC(=O)c3ccc(C)c(Nc4nccc(-c5cccnc5)n4)c3)cc(C(F)(F)F)c2)cn1,110
Cc1nc2cc3nc(-c4cccs4)cnc3cc2n1C,94.3
N#C/C(=C\c1ccc(O)c(O)c1)C(=O)NCc1ccccc1,116
COc1cc2c(cc1OC)-c1[nH]nc(Nc3cccc(F)c3)c1C2,103
COc1cc2ncnc(Nc3ccc(O)c(Br)c3)c2cc1OC,86.7
O=C1C(Cl)=C(N2C(=O)CCC2=O)C(=O)c2ccccc21,95.9
N#Cc1c(NC(=O)c2cccc3ccccc23)sc2c1CCCC2,97.6
c1ccc(-c2[nH]ncc2-c2ccnc3ccccc23)nc1,99.7

# Study 4 — cell line: mouse MPNST tumor cells; method: high-content nuclear imaging; refers to: cell number; tested at: 10 µM; time: 12 h; setting: mean of 2 replicates; relative to: plate mean; reading: higher = more cells
Structure (SMILES),nuclei count
NS(=O)(=O)c1cc(C(=O)O)cc(N2CCCC2)c1Oc1ccccc1,0.742 z-score
CC(=O)c1ccc2c(c1)N(CCCN(C)C)c1ccccc1S2,0.271 z-score
Cc1cc(C=C2SC(=O)N(c3ccccc3)C2=O)c(C)n1-c1cccnc1,-0.484 z-score
N=C(N)c1ccc(-c2ccc(-c3ccc(C(=N)N)cc3)o2)cc1,-0.633 z-score
COc1cc(C)c(Sc2cnc(NC(=O)c3ccc(CNC(C)C(C)(C)C)cc3)s2)cc1C(=O)N1CCN(C(C)=O)CC1 (stereo not drawn),-3.99 z-score
CN(CCc1ccc(Cl)c(Cl)c1)CC(O)COc1ccc(NS(C)(=O)=O)cc1 (stereo not drawn),1.01 z-score
CCCCNc1c(C(=O)OCC)c(C)nc2c1cnn2CC,0.79 z-score
C[C@@H]1CN(CC(=O)Nc2ccc3c(c2)Cc2cccc(-c4cc(=O)cc(N5CCOCC5)o4)c2S3)C[C@H](C)O1,-1.89 z-score
Nc1ccc(S(=O)(=O)Nc2cnc3ccccc3n2)cc1,-0.729 z-score
CCC1(c2c[nH]cn2)Cc2ccccc2C1,1.11 z-score
COc1cc2nccc(Oc3ccc(NC(=O)Nc4ccc(F)cc4F)c(F)c3)c2cc1OC,-4.37 z-score
CCN1CCN(Cc2ccc(-c3cc4c(N[C@H](C)c5ccccc5)ncnc4[nH]3)cc2)CC1,-4.74 z-score
Cc1cc(C)cc(NC(N)=Nc2ccccc2C(F)(F)F)c1,2.17 z-score
Nc1ccc(-c2nc3ccc(-c4nc5ccc(N)cc5[nH]4)cc3[nH]2)cc1,4.78 z-score
CC1(C)C[C@@H]1C(=O)N/C(=C\CCCCSC[C@H](N)C(=O)O)C(=O)O,0.723 z-score
COc1ccc(CCC(=O)Nc2nc3ccc(Cl)cc3s2)cc1OC,1.05 z-score

# For quick reference, copied from above (study 2):
SMILES,viability
CCC(=O)O[C@]1(C(=O)SCF)[C@H](C)C[C@H]2[C@@H]3C[C@H](F)C4=CC(=O)C=C[C@]4(C)[C@@]3(F)[C@@H](O)C[C@@]21C,35.1%
CC(C)(Oc1ccc(CCNC(=O)c2ccc(Cl)cc2)cc1)C(=O)O,102%
CC(=O)Nc1c(I)c(NC(C)=O)c(I)c(C(=O)O)c1I,106%
C[C@]12CCC(=O)C=C1CC[C@@H]1[C@@H]2[C@@H](O)C[C@@]2(C)[C@H]1CC[C@]2(O)C(=O)CO,116%
C[C@H](Cn1cnc2c(N)ncnc21)OCP(=O)(O)O,102%
C=C(c1ccc(C(=O)O)cc1)c1cc2c(cc1C)C(C)(C)CCC2(C)C,2.38%
Cc1nnc(SCC2=C(C(=O)O)N3C(=O)[C@@H](NC(=O)Cn4cnnn4)[C@H]3SC2)s1,110%
CCCC(=O)Nc1ccc(OCC(O)CNC(C)C)c(C(C)=O)c1 (stereo not drawn),93%
O=C(O)CCc1nc(-c2ccccc2)c(-c2ccccc2)o1,94.1%
